Assay results pooled from the literature.
Lines come from different studies, so protocols differ.
Target: Histamine H2 receptor (HRH2, Homo sapiens, UniProt P25021)
UniProt P25021, sequence (whole entry, looked up): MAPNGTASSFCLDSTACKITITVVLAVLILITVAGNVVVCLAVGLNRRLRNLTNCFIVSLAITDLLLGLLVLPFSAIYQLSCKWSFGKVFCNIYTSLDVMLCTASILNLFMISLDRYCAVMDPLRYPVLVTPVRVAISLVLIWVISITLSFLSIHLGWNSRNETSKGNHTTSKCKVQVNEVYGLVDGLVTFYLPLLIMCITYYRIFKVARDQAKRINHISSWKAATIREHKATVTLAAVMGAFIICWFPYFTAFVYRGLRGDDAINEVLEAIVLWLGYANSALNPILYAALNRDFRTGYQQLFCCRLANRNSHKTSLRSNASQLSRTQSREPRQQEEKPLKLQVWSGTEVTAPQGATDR

| Structure (SMILES) | test | system | setting | endpoint | result |
| --- | --- | --- | --- | --- | --- |
| C[Si]1(C[C@H](CN)CC(=O)O)CCCC1 | cell-free assay, inhibitor |  | 70 µM | inhibition | -3% |
| COc1ccc(C#CC2=C[C@H]3C[C@@]4(OC(=O)C=C24)[C@H]2CC[C@H](C(OC)OC)N32)cc1 | ligand displacement, radioligand |  | 10 µM | inhibition | 31% |
| O=C1c2sc(-c3ccc(N4CCC(F)C4)nc3F)nc2CCN1c1cccnc1 (stereo not drawn) | ligand displacement, radioligand |  | 1 µM | inhibition | -2% |
| COc1ncc2nc(C)n(Cc3ncc(S(N)(=O)=O)cc3F)c2c1-c1ccccc1 | agonist, cell-based |  | 10 µM | activation | 2.34% |
| CC(C)Cn1c(SCC(=O)N2CCc3ccccc3C2)nc2cc(Cl)ccc2c1=O | ligand displacement, radioligand |  | 10 µM | inhibition | 20% |
| Cc1cccc(O[C@H]2CCC[C@@H](C(C)CNCc3ccncc3)C2)c1 (relative stereo) | ligand displacement |  | 10 µM | inhibition | 58% |
| CCC(=O)N(C)c1ccc(Cl)c(Cl)c1 | ligand displacement, radioligand |  | 10 µM | inhibition | < 10% |
| Cn1ccc2cc(-n3c(=O)[nH]c4sc5c(c4c3=O)CCCC5)ccc21 | cell-free assay, radioligand |  | 10 µM | inhibition | -15% |
| Cc1[nH]nc2c1N=C(c1ccccc1Cl)c1cnc(N3CCOCC3)cc1N2 | cell-free assay |  | 10 µM | inhibition | 0% |
| CO[C@@H](C)c1c(NC(=O)Nc2cnc(-n3nccn3)c(C(F)(F)F)c2)cnc2sc(C)nc12 | ligand displacement, radioligand |  | 10 µM | inhibition | 14.7% |
| COCC(=O)N1CCc2cc(-c3csc(NC(=O)c4cc(OC)cc(OC)c4)n3)ccc21 | ligand displacement, radioligand |  | 10 µM | inhibition | 8% |
| COc1ccc(C(=O)Nc2c(-c3cccs3)nc3ccccn23)cc1 | ligand displacement, radioligand |  | 10 µM | inhibition | < 50% |
| C[Si](C)(C)C[C@@H](CN)CC(=O)O | cell-free assay, inhibitor |  | 75 µM | inhibition | -9% |
| COc1ccc(S(=O)(=O)N2CCc3ccccc3C2)cc1N1CCN(C(=O)c2ccc(F)cc2C(F)(F)F)CC1 | cell-free assay |  | 1 µM | inhibition | 17.5% |
| CNC(=O)C[C@H](Cc1ccc(C#N)cc1)NC(=O)c1cc(-c2ccc(CN[C@H](C)c3ccc(C)cc3)o2)ccc1Cl | agonist response, antagonist | human cells | 10 µM, H2 antagonist | inhibition | -24% |

A few entries again:
| Structure (SMILES) | test | system | setting | endpoint | result |
| --- | --- | --- | --- | --- | --- |
| COc1ncc2nc(C)n(Cc3ncc(S(N)(=O)=O)cc3F)c2c1-c1ccccc1 | agonist, cell-based |  | 10 µM | activation | 2.34% |
